Measurements gathered from unrelated publications.
Each line is one published result; not all experiments were run side by side. Numbers after ± are the reported error.
T1: ssDNA, aptamer; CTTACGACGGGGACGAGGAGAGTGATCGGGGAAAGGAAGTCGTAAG

Structure (SMILES)	target	assay	test system	setting	scale	measurement	value
CN1CCN(c2cc(-c3ccncc3)c(-c3ccc4ccccc4c3)nn2)CC1	Type-1 angiotensin II receptor (AGTR1, Homo sapiens, UniProt P30556)	agonist, FLIPR		12.5 µM		activation	-0.8%
C=CCO[C@H]1CCN2C(=O)[C@@H](NC(=O)[C@H](CCCNC(=N)N)NC(=O)[C@H](CCCNC(=N)N)NC(C)=O)CSSC[C@@H](C(=O)N[C@@H](CCCNC(=N)N)C(=O)N[C@@H](CCCNC(=N)N)C(N)=O)NC(=O)[C@H](C(C)C)NC(=O)[C@@H]3CCCN3C(=O)[C@H](CC(=O)O)NC(=O)[C@H](Cc3ccc(O)cc3)NC(=O)[C@H](CO)NC(=O)[C@H]([C@@H](C)CC)NC(=O)[C@H](Cc3ccc(-c4ccccc4)cc3)NC(=O)[C@H](CC3CCC3)NC(=O)[C@H]12	GTPase KRas, GDP-bound (KRAS, Homo sapiens, UniProt P01116, G12D)	affinity selection mass spectrometry		mixture library 3, together with: protein titration up to 2.5 µM	lower is stronger binding	lowest bound protein concentration	0.04 µM
N[C@H](CNC(=O)c1cc(Br)c(-c2ccccc2Br)s1)C(=O)O	Glutamate receptor ionotropic, NMDA 1, with GluN2D (Grin1, Rattus norvegicus, UniProt P35439)			together with: glutamate 300 µM		Hill slope	1.43
CC(=O)N[C@H](C(=O)N1C[C@H](O)C[C@H]1C(=O)NCc1ccc(-c2scnc2C)cc1)C(C)(C)SCCCCCCNC(=O)C[C@@H]1N=C(c2ccc(Cl)cc2)c2c(sc(C)c2C)-n2c(C)nnc21	BRD2/VHL, BD1; with VCB (Homo sapiens, UniProt P25440+P40337, K107A/Q101K/V106E)	ITC		25 °C, BRD2 BD1 KEA mutant, ternary		−TΔS	-5 ± 1 kcal/mol
OC[C@H]1O[C@@H](Oc2cc3c(O)cc(O)cc3[o+]c2-c2cc(O)c(O)c(O)c2)[C@H](O)[C@@H](O)[C@@H]1O	Albumin (ALB, Homo sapiens, UniProt P02768)	binding, visible absorption		50 µM, pH 7, together with: HSA up to 200 µM	relative to: without HSA	bathochromic shift	67 nm
CC1CCCN(C(=O)c2cc3ncccn3n2)C1 (stereo not shown)	DNA mismatch repair protein Msh6 (Homo sapiens, UniProt P52701)	binding, affinity selection mass spectrometry			relative to: other proteins in batch	fold enrichment	0.833
C=CC(=O)N1CCC(COCC(=O)N2CCN(c3nc(-c4cnc(N)nc4C(F)F)nc(N4CCOC[C@@H]4C)n3)CC2)CC1	Mitogen-activated protein kinase 7 (MAPK7, Homo sapiens, UniProt Q13164)	KINOMEscan		1 µM		remaining binding	100%
Cc1nc(CSc2nc(SCc3ccc(C(C)C)cc3)nc(=O)[nH]2)cs1	DNA topoisomerase 2-alpha (TOP2A, Homo sapiens, UniProt P11388)	DNA cleavage		31.25 µM, replicate 1		linear DNA	0%
Nc1ncnc2c1ncn2[C@@H]1O[C@H](COP(=O)(O)OP(=O)(O)OP(=O)(O)O)[C@@H](O)[C@H]1O	T1, ssDNA, aptamer	ITC				Kd	0.803 µM
CNC(=O)[C@@]12C[C@@H]1[C@@H](n1cnc3c(NC)nc(C#Cc4ccc(Cl)s4)nc31)[C@H](O)[C@@H]2O	Adenosine receptor A3 (ADORA3, Homo sapiens, UniProt P0DMS8)	receptor activation, agonist		10 µM	relative to: control	activity	168%
COc1cnc2c(cc(C(=O)NCc3ccc(Cl)cc3)c(=O)n2CC(=O)N2CC(C)(F)C2)n1	DNA polymerase catalytic subunit (Human cytomegalovirus, UniProt P08546)	enzyme activity, inhibitor				Hill slope	0.8
NCCS(=O)(=O)O	Sodium- and chloride-dependent taurine transporter (SLC6A6, Homo sapiens, UniProt P31641, S402A)	binding, microscale thermophoresis		125 µM, room temperature, together with: 50 nM labelled protein	higher = more binding	normalised MST signal	0.0341
CCCCCC(C)O (stereo not shown)	uncharacterized protein (Spodoptera exigua, UniProt F1CEY0)	binding, competitor, fluorescence displacement		20 µM, pH 7.4, together with: 1-NPN 20 µM	relative to: 1-NPN alone	relative fluorescence	69.1%
CC(=O)Nc1ccc(O)cc1	Bromodomain-containing protein 4 (BRD4, Homo sapiens, UniProt O60885)	19F NMR, measured: tyrosine 65		188 µM	relative to: free protein	chemical shift change	-0.009 ppm
O=C(Nc1cnccc1Cl)N1CCN(Cc2ccc3c(c2)OC(F)(F)O3)CC1	Fatty-acid amide hydrolase 1 (FAAH, Homo sapiens, UniProt O00519)	enzyme activity, inhibitor	COS cells expressing human FAAH	1 h	relative to: whole cells over membrane preparation	potency ratio	4 to 6
O=C(O)c1ccc(Nc2ncc3c(n2)-c2ccc(Cl)cc2C(c2c(F)cccc2F)=NC3)cc1	human DAPK1(h)	kinase activity		1 µM		remaining activity	114%

A few entries again:
Structure (SMILES)	target	assay	test system	setting	scale	measurement	value
C=CCO[C@H]1CCN2C(=O)[C@@H](NC(=O)[C@H](CCCNC(=N)N)NC(=O)[C@H](CCCNC(=N)N)NC(C)=O)CSSC[C@@H](C(=O)N[C@@H](CCCNC(=N)N)C(=O)N[C@@H](CCCNC(=N)N)C(N)=O)NC(=O)[C@H](C(C)C)NC(=O)[C@@H]3CCCN3C(=O)[C@H](CC(=O)O)NC(=O)[C@H](Cc3ccc(O)cc3)NC(=O)[C@H](CO)NC(=O)[C@H]([C@@H](C)CC)NC(=O)[C@H](Cc3ccc(-c4ccccc4)cc3)NC(=O)[C@H](CC3CCC3)NC(=O)[C@H]12	GTPase KRas, GDP-bound (KRAS, Homo sapiens, UniProt P01116, G12D)	affinity selection mass spectrometry		mixture library 3, together with: protein titration up to 2.5 µM	lower is stronger binding	lowest bound protein concentration	0.04 µM
N[C@H](CNC(=O)c1cc(Br)c(-c2ccccc2Br)s1)C(=O)O	Glutamate receptor ionotropic, NMDA 1, with GluN2D (Grin1, Rattus norvegicus, UniProt P35439)			together with: glutamate 300 µM		Hill slope	1.43
